# Measurements collected from several papers.
# Protocols differ between the studies behind these lines. ± marks the error that the study gave.
SMILES,assay,system,setting,measurement,result
Cc1c(=O)n(C)c(Nc2ccc(I)cc2F)c2c(=O)n(C3CC3)c(=O)n(-c3cccc(NC(=O)CCOCCOCCNC(=O)CCC4=[N+]5C(=Cc6ccc(-c7ccc[nH]7)n6[B-]5(F)F)C=C4)c3)c12,,,,solubility limit,~2 µM
CC1(CNC(=O)[C@H](CN)NC(=O)c2ccc(C#CC#Cc3ccccc3)cc2)NC(=O)NC1=O (stereo partly shown),,aqueous buffer,pH 7.4,solubility,< 2.45 mg/mL
CCCCCCCCCC(=O)Nc1ccc(C(O)P(=O)(O)O)cc1 (stereo not shown),,water,,solubility,4 mg/mL
CN1CCC[C@@H]1C(=O)N[C@@H](Cc1ccc(-c2ccccn2)cc1)B(O)O,nephelometry,phosphate buffer,pH 6.8,solubility,100 µM
O=C(NO)[C@H]1COC(c2ccc(F)c(C(F)(F)F)c2)=N1,,aqueous buffer,pH 7.4,solubility,90.3 mg/mL
COc1cccc(-c2cc(-n3nncc3-c3ccc(C(F)(F)F)cc3)ccc2OC)c1,,water,,solubility,13.6 ± 0.2 µM
CCOc1ccccc1Nc1nnc(SCC(=O)Nc2cc(F)ccc2F)s1,,FaSSIF,,solubility,138 µM
CN1CCC[C@@H]1C(=O)N[C@@H](Cc1ccccc1)B(O)O,nephelometry,phosphate buffer,pH 6.8,solubility,> 200 µM
O=C(NO)[C@H]1COC(c2ccc(OCc3cccc(F)c3)c(OC(F)(F)F)c2)=N1,,aqueous buffer,pH 7.4,solubility,262 mg/mL
COc1ccc(CC(=O)OCc2ccc(-n3cccn3)cc2)cc1F,,FaSSIF,,solubility,89.3 µM

# Excerpt of the above:
SMILES,assay,system,setting,measurement,result
O=C(NO)[C@H]1COC(c2ccc(F)c(C(F)(F)F)c2)=N1,,aqueous buffer,pH 7.4,solubility,90.3 mg/mL
